Assay results from different studies.
Compare with care: the assays were run in different laboratories. “And” joins repeats or separate records; there may be more than shown.
IGF1R: Insulin-like growth factor 1 receptor (IGF1R, Homo sapiens, UniProt P08069)
UniProt P08069, sequence (whole entry, looked up): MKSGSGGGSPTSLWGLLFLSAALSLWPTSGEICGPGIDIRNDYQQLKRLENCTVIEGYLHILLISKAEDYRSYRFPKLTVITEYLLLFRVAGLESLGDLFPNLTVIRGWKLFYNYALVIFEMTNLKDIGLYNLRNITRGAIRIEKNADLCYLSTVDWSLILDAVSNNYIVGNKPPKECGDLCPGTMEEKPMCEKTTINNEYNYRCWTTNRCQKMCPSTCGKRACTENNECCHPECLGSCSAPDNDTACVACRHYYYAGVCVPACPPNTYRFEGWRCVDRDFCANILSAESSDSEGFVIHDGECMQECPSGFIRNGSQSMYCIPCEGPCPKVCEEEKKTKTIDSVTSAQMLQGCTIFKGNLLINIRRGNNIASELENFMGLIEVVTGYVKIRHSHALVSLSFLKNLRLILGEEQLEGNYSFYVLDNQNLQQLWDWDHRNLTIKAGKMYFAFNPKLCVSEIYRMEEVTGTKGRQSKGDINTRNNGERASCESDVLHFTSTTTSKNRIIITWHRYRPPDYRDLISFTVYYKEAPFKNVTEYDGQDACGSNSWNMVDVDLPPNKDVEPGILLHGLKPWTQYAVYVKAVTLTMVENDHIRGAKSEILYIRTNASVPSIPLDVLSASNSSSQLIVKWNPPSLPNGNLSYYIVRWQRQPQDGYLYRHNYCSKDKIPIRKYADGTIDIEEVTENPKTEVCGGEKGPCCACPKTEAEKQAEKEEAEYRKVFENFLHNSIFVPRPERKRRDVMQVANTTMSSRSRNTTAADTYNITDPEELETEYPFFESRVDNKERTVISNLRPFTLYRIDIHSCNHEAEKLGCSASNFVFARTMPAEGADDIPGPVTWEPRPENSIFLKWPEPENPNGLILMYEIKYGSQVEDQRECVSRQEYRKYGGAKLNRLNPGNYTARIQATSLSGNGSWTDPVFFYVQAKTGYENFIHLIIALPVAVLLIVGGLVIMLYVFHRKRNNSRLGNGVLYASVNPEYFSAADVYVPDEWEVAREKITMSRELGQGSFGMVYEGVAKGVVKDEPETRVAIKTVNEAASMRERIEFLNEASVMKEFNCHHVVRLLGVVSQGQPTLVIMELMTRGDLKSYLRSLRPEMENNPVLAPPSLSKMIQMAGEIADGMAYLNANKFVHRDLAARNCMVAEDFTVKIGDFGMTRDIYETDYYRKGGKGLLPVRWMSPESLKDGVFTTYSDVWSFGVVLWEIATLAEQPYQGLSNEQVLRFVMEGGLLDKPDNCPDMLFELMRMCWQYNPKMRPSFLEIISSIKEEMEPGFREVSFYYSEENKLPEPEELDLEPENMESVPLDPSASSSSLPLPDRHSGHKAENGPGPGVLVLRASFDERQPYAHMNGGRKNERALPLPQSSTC
IGF1R phosphorylated: Insulin-like growth factor 1 receptor, phosphorylated (IGF1R, Homo sapiens, UniProt P08069)

Structure (SMILES)	target	assay	setting	scale	quantity	value
CNC(=O)C1CCN(c2cc(C)c(F)cc2NC(=O)c2ccc(-c3cc(O)ccc3C)c(C)c2)CC1	IGF1R	binding, competition with immobilised ligand	1 µM		remaining binding	94%
C=CC(=O)N1CCCC(n2c(=O)c3ncccc3n(Cc3ccc(Oc4ccccc4)cc3)c2=O)C1 (stereo not drawn)	IGF1R	cell-free assay, competition with immobilised ligand	1 µM		remaining binding	94%
COc1cc(OC)c(F)c(/C=C/c2cnc3ccn(S(=O)(=O)c4cn(CCF)cn4)c3n2)c1F	IGF1R		1000 nM		inhibition	11.5%
CCN1CCN(Cc2ccc(C(=O)Nc3ccc(C)c(NCc4cnc5[nH]ccc5c4OC)c3)cc2C(F)(F)F)CC1	IGF1R	binding, competition with immobilised ligand	1 µM		remaining binding	100%
O=C(Nc1ccc(Oc2ncnc3[nH]cc(-c4ccccc4)c23)c(F)c1)c1c2n(n(-c3cc(F)ccc3F)c1=O)CCCC2	IGF1R	enzyme activity, inhibitor	0.5 µM		inhibition	27%
Cc1nc2c(F)cc(-c3nc(Nc4ccc(CNC(=O)CCCCCCC(=O)NO)cc4)ncc3F)cc2n1C(C)C	IGF1R phosphorylated	enzyme activity, inhibitor	1 µM		inhibition	74%
CN1CCN(c2ccc(Nc3ncc(Cl)c(Nc4ccccc4P(C)(C)=O)n3)cc2Br)CC1	IGF1R	enzyme activity, inhibitor	0.1 µM		inhibition	76.8%
C=C1CCCCCCCCCC(CO)C1=O (stereo not drawn)	IGF1R	cell-free assay	10 µM		remaining signal	100%
NC(=O)C[C@H]1CCc2sc3ncnc(O[C@H]4CC[C@H](N5CCOCC5)CC4)c3c21	IGF1R	enzyme activity, inhibitor	10 µM		inhibition	3%
Nc1ncc(-c2cc(-c3cnn(CC(F)(F)F)c3)ncc2F)nc1C(=O)NC1CNCC(F)C1 (stereo not drawn)	IGF1R	enzyme activity	1 µM	baseline: DMSO control	remaining activity	97.6%
Cc1cccc(O[C@H]2CCC[C@@H](C(C)CNCc3ccncc3)C2)c1 (relative stereo)	IGF1R	cell-free assay	10 µM		inhibition	-2%
CC(=O)N1c2ccc(-c3ccc(CNC(=O)c4cn5cc(-c6cnc(N)nc6)nc(N6CCOCC6)c5n4)cc3)cc2CC[C@@H]1C	IGF1R	KINOMEscan	10 µM		remaining binding	96%
C=CC(=O)N1CCc2ccc(-n3c(=O)ccc4cnc5ccc(-c6cnn(C)c6)cc5c43)cc21	IGF1R	KINOMEscan	1 µM	baseline: DMSO control	remaining binding	100%
Cc1ccc(C)c(-c2ccc3nc(NC(=O)C4CCCCC4)nn3c2)c1	IGF1R	enzyme activity, Dundee kinase panel	10 µM		remaining activity	104%
Nc1nc(Nc2ccccc2)sc1C(=O)c1ccccc1	IGF1R	enzyme activity, inhibitor	10 µM		remaining activity	41%
Cc1cccc(-c2ccc3nc(NC(=O)C4CCCO4)nn3c2)c1 (stereo not drawn)	IGF1R	enzyme activity, Dundee kinase panel	10 µM		remaining activity	78%
CCn1cc(C(=O)O)c(=O)c2c(N)c(F)c(NC3CCCCC3)cc21	IGF1R	kinase activity	0.1 µM, with: ATP at Km		inhibition	1.6%
COCC12C(=O)NC3C4(C(OC)CC1O)C1CC5(O)C(OC)C(O)C(OC(C)=O)(C1C5OC(=O)c1ccccc1)C3(O)C(OC)C24 (stereo not drawn)	IGF1R	kinase activity, inhibitor, ProQinase kinase profiling	25 µM	baseline: control	remaining activity	102% and 91%
O=C(Cc1ccc(OCc2ccccc2)cc1)NC1(C(=O)O)CCN(C(=O)c2ccc(-c3cccc(Cl)c3)cc2)CC1	IGF1R	enzyme activity, inhibitor	10 µM		activity vs control	145%
Nc1ncc2c(n1)-c1c([nH]c3ccc(C4=CCOCC4)cc13)CCC2	IGF1R	binding, competition with immobilised ligand	1 µM		remaining binding	100%
C=CC(=O)Nc1cccc(-c2cnc3[nH]cc(C(=O)NC(C)(C)C)c3n2)c1	IGF1R	kinase activity	0.1 µM		inhibition	3% and 5%
O=C=[N][Ru-4]123([n]4c5ccc(O)cc5c5c6c(c7cc(F)c[n+]1c7c54)C(=O)NC6=O)[S+]1CC[S+]2CC[S+]3CC1 (stereo not drawn)	Insulin-like growth factor 1 receptor, activated (IGF1R, Homo sapiens, UniProt P08069)	enzyme activity	100 nM, human enzyme, with: 10 µM ATP	baseline: untreated	remaining activity	54%
CN1CCN(Cc2ccc(NC(=O)c3cccc(C#Cc4cnc(N)c5ncccc45)c3)cc2C(F)(F)F)CC1	IGF1R	cell-free assay, competition with immobilised ligand	50 nM		remaining binding	97%
O=C(O)CCC(=O)c1cccc(NS(=O)(=O)c2c[nH]c3ncccc23)c1	IGF1R	kinase activity, radiometric	10 µM		remaining activity	125%
CN1CCN(Cc2ccc(-c3ccc(CO[C@H]4CCC[C@@H]4NC(=O)c4cc(-c5cnn(C)c5)cnc4N)cc3)cc2)CC1	IGF1R	enzyme activity, inhibitor	0.1 µM		inhibition	6%
CN1CC[C@@H](COc2cnc(C#N)cc2-c2ccn3nc(NC(=O)C4CC4)cc3c2)C1	IGF1R phosphorylated	enzyme activity, inhibitor	1 µM		inhibition	-5%
COc1ccc(NC(=O)Nc2ccc3c(c2)C(=O)N(C(C)CO)CC(C)C(CN(C)Cc2ccc4c(c2)OCO4)O3)cc1 (stereo not drawn)	IGF1R	kinase activity, KinaseProfiler	0.03 µM, species human	baseline: control	remaining activity	92%
